Measured values of several laboratories.
Several values in a cell are separate wells, animals, samples, runs or records. ± gives the spread as reported.
uncharacterized protein: uncharacterized protein (Anopheles coluzzii, UniProt A0A6E8VQK1)
MAOA: Amine oxidase [flavin-containing] A (MAOA, Homo sapiens, UniProt P21397)
Sequence of UniProt Q62351 (whole entry, looked up): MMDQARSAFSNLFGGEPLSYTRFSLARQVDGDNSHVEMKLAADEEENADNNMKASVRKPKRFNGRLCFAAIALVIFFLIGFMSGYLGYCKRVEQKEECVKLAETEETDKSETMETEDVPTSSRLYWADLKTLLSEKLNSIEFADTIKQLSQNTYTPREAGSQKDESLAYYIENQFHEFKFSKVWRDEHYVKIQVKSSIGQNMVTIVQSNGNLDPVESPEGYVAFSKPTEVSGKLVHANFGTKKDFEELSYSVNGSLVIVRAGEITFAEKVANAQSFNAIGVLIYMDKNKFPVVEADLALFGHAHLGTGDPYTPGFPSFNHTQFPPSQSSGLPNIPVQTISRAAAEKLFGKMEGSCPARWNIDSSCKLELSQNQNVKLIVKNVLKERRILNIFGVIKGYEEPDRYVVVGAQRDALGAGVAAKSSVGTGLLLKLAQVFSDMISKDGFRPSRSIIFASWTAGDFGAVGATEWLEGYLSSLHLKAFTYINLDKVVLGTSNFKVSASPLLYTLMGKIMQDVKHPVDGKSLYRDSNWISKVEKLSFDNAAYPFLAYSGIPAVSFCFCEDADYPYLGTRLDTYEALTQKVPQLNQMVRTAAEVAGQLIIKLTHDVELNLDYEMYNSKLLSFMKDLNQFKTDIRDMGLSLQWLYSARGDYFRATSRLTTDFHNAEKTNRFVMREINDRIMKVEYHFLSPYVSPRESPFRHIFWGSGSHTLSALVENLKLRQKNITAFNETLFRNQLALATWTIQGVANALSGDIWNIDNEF
Sequence of UniProt P21397 (whole entry, looked up): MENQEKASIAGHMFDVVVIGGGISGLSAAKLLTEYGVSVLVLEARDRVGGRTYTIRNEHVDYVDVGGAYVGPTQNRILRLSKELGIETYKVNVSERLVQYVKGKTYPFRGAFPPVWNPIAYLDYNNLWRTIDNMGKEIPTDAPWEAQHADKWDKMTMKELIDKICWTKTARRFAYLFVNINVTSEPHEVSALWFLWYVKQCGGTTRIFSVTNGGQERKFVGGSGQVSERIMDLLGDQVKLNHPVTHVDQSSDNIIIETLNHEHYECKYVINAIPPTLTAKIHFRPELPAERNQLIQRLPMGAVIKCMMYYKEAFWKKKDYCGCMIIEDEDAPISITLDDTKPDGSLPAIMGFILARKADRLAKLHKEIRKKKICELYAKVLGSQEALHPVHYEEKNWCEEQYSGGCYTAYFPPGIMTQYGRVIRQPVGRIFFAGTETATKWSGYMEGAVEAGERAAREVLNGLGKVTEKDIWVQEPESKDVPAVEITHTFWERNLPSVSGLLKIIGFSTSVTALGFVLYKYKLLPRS
Sequence of UniProt P42336 (whole entry, unmodified, looked up): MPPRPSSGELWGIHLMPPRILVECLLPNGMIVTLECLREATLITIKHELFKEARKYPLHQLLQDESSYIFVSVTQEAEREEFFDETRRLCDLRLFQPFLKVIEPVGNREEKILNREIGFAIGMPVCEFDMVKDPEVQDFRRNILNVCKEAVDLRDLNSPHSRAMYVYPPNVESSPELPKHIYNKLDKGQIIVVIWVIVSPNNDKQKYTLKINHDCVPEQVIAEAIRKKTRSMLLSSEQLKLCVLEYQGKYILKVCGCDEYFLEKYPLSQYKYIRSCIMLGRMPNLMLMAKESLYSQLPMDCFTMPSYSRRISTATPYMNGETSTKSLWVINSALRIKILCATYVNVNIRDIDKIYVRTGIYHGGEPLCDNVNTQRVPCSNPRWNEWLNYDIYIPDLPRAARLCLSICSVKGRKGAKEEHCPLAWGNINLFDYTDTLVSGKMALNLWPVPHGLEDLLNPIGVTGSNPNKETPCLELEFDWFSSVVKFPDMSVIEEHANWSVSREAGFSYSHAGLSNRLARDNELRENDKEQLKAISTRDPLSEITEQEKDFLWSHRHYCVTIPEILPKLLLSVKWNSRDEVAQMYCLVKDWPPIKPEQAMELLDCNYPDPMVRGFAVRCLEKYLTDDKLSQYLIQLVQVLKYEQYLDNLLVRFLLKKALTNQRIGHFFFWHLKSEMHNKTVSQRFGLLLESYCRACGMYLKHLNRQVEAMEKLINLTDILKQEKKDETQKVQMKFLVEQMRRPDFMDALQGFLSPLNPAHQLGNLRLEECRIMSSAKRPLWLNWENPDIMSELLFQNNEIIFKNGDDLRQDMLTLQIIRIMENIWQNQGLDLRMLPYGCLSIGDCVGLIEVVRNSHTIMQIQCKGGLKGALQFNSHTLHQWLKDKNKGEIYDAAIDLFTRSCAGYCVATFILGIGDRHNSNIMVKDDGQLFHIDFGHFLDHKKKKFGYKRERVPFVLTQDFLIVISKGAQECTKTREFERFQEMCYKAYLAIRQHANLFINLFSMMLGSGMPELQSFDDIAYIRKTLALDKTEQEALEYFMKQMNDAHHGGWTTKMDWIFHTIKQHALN
Sequence of UniProt Q9UKP6 (whole entry, looked up): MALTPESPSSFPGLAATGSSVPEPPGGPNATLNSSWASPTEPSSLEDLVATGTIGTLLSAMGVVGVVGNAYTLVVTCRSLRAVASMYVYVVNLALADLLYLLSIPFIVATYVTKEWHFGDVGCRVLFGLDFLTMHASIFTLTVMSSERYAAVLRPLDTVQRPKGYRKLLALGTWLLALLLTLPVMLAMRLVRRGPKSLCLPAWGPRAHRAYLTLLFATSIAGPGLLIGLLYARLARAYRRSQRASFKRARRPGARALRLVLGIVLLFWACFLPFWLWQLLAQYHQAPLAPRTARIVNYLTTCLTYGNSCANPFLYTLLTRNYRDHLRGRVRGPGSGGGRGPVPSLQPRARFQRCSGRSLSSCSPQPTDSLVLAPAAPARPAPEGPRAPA
Sequence of UniProt P20782 (whole entry, looked up): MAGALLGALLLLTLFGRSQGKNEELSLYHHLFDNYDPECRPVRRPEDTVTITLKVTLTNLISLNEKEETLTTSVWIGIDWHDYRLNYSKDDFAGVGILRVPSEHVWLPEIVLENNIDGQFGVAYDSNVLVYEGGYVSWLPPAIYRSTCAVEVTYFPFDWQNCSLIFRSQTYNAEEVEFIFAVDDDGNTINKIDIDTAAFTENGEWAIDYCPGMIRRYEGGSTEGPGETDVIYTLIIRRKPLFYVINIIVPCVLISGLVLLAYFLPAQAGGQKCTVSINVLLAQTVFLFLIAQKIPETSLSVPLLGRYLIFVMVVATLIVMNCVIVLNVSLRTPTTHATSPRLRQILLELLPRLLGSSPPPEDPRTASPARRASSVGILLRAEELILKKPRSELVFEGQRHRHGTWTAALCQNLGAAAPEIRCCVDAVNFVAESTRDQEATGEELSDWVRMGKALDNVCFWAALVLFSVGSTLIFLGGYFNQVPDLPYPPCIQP
Sequence of UniProt Q8NCC3 (whole entry, looked up): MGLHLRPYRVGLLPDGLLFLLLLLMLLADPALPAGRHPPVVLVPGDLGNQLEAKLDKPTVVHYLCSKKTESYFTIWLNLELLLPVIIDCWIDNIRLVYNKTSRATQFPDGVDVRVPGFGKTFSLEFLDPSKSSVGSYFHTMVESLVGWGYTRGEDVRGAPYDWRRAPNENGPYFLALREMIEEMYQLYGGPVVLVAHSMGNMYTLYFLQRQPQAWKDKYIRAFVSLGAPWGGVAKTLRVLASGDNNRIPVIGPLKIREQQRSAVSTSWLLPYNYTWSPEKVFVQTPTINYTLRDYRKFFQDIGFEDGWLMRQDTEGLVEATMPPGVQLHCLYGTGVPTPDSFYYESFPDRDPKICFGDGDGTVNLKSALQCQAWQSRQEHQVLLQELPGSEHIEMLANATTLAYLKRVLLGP
Sequence of UniProt Q14994 (whole entry, looked up): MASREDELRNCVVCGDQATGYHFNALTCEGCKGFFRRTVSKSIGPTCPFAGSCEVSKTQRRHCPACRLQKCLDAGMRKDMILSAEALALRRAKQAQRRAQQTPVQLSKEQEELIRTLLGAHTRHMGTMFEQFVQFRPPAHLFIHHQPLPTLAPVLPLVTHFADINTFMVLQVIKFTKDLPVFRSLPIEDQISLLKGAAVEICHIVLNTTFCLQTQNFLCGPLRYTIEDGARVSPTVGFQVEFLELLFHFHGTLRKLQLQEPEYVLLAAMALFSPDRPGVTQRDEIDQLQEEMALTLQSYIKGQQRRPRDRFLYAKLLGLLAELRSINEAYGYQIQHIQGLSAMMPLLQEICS
Sequence of UniProt Q9UBS5 (whole entry, looked up): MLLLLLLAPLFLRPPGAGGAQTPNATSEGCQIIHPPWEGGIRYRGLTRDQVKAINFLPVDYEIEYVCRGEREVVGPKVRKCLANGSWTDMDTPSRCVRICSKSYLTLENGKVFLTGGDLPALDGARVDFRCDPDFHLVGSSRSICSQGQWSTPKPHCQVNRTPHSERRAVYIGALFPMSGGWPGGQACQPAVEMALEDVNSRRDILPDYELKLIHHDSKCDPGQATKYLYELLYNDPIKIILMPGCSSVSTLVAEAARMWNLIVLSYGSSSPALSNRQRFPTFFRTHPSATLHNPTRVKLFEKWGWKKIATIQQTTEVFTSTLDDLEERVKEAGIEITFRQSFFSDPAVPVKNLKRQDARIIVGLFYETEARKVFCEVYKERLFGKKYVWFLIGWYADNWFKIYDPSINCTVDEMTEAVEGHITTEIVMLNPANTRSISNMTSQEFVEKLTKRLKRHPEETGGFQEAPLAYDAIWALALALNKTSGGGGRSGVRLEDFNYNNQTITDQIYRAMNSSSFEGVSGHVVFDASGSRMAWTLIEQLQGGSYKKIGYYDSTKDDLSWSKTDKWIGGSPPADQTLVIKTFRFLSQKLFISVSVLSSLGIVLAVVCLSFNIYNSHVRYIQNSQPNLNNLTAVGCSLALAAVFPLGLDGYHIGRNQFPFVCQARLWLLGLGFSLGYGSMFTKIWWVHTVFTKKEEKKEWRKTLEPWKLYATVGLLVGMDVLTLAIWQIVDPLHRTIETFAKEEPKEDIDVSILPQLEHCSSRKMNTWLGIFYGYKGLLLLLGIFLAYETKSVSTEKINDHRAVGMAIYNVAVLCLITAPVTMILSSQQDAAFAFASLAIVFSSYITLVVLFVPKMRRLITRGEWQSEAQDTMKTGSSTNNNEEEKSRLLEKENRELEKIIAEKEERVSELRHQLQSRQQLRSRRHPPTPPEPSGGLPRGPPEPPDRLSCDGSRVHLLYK

For `[2H]c1c([2H])c([C@]2([2H])CCCN2C(=O)C(C)(C)Oc2ccc3cn[nH]c3c2)c([2H])c([2H])c1C([2H])([2H])[2H]`, the remaining binding was 79% (Ribosomal protein S6 kinase alpha-3, N-terminal kinase domain (RPS6KA3, Homo sapiens, UniProt P51812); KINOMEscan; 1 µM; baseline: DMSO control).
`C/C=C1/C(=O)C[C@H]2[C@@H]3CCC4=CC(=O)CC[C@]4(C)[C@H]3CC[C@]12C` — result for IC50: “inactive” (Nuclear receptor subfamily 1 group I member 3 (Homo sapiens, UniProt Q14994); coactivator recruitment).
The selectivity ratio of `COc1cc2nccc(Oc3ccc(NC(=O)c4cc5c(n(-c6ccccc6)c4=O)CCCC5=O)nc3)c2cc1OC` is reported as over 100 (SRC (Homo sapiens, UniProt P12931); cell viability, CellTiter-Glo; Ba/F3 expressing recombinant kinase; baseline: SRC IC50 over AXL IC50).
`O=P(O)(O)OC[C@H]1C[C@](O)(CO)[C@@H](O)[C@H](O)[C@@H]1O` has an apparent Vmax of 2.7 ± 0.3 µM/min (valA (Streptomyces hygroscopicus, UniProt H2K887); phosphate release; 150 µM).
For `CC[C@@H](C)[C@@H](NC(=O)[C@@H](Cc1ccc(O)cc1)NC(=O)[C@H]1CCCN1C(=O)[C@@H](CCCNC(=N)N)NC(=O)[C@H](N)Cc1c[nH]cn1)C(=O)N[C@H](C)C(=O)N[C@H](Cc1c[nH]cn1)C(=O)N[C@H](CCCNC(=N)N)C(=O)N[C@H](CCCCNC(=O)c1cccc(S(=O)(=O)F)c1)C(=O)N[C@H](Cc1ccc(O)cc1)C(=O)N[C@H](CO)C(=O)N[C@H](Cc1ccccc1)C(N)=O`, the surface expression was 0.919 and 0.887 (Transferrin receptor protein 1 (Tfrc, Mus musculus, UniProt Q62351); flow cytometry; RAW264.7; 24 h, pH 7.4, unit not given; baseline: 0 h).
`C[N+](C)(C)CCOC(N)=O` gave a log-log slope of 1.5 (Chrnd/Chrna1/Chrne (Mus musculus, UniProt P02716+P04756+P20782); end-plate depolarization; mouse end-plate; range 5 to 40 µM, no d-tubocurarine).
With `CC(=C\C=C\C(C)=C\[C@H](O)[C@@H](O)C[C@H](C)O)/C=C(C)/C=C/C(=O)O[C@H]1CCCC(=O)O[C@@H]([C@@H](C)C/C(C)=C/[C@@H](C)[C@H](O)C[C@@H](C)O)C/C=C(\C)C[C@@H]1C` the FLuc/RLuc ratio was 1.97 (Protein transport protein Sec61 subunit alpha isoform 1 (Homo sapiens, UniProt P61619); Sec61-dependent translocation, inhibitor, item: CD4 signal peptide-FLuc reporter; HEK293; concentration not given, 6 h; baseline: mock).
For `c1ccc2c(c1)cc1ccc3cccc4ccc2c1c34`, the agonist response was 27.9% (Ahr (Rattus norvegicus, UniProt P41738); agonist, CALUX reporter; H4IIE; 0.000126 µg/mL).
`Cc1nn(C)cc1-c1nc2c(N3CCN(Cc4ccc(Cl)cc4)CC3)c(Cl)cnc2[nH]1` has a remaining binding of 95% (PKMYT1 (Homo sapiens, UniProt Q99640); KINOMEscan; 1 µM; baseline: DMSO control).
`O=C(c1ccc(Cl)cc1)N1CCN2C(=O)N(OC(=O)N3CCOc4ccccc43)C(=O)C2C1` (stereo not drawn): “mean protein ratio” 1.11 (PLA2G15 (Homo sapiens, UniProt Q8NCC3); MS-based ABPP; SW-620 conditioned medium; 10 µM, 1 h, 37 °C; baseline: compound over DMSO, lower = more inhibition).
With `CN(CC(=O)O)C(=N)NP(=O)(O)O` the kcat was 12 ± 5 s⁻¹ (CKMT1A (Homo sapiens, UniProt P12532, D359N); substrate, Kinase-Glo luminescence; pH 7.0, reverse reaction, D321N mutant, together with: second substrate in excess).
`CC(CCn1ccc(-c2ccc(-c3cn(Cc4ccccn4)nn3)cc2)cc1=O)(C(=O)NO)S(C)(=O)=O` (stereo not drawn) gave a residence time of about 3 fold (UDP-3-O-acyl-N-acetylglucosamine deacetylase (Pseudomonas aeruginosa, UniProt P47205); baseline: 1).
For `O=C(Nc1cccnn1)N1CCC(=Cc2cccc(Oc3ccc(C(F)(F)F)cn3)c2)CC1`, “inhibition of binding” read 19% (GABBR1 (Homo sapiens, UniProt Q9UBS5); radioligand binding; 50 µM, together with: [3H]CGP-54626).
The remaining activity of `CCOC(=O)CC(SP(=O)(OC)OC)C(=O)OCC` (stereo not drawn) is reported as 33.9% (uncharacterized protein; enzyme activity, inhibitor; Sf9 cell homogenate; 0.344 µM, 0.1667 h, together with: α-naphthyl acetate substrate; baseline: no inhibitor).
`Nc1ncc(-c2nc(N3CCOCC3)nc(N3CCOCC3)n2)c(C(F)F)n1` has a remaining binding of 0% (PIK3CA (Homo sapiens, UniProt P42336, E545A); KINOMEscan; 10 µM).
For `Nc1ncnc2c1ncn2[C@@H]1O[C@H](COP(=O)(O)O)[C@@H](O)[C@H]1O`, “fluorescence ratio F+/F-” read 1.15 (matB (Rhodopseudomonas palustris, UniProt Q6ND88, C106A/K488A/Q457C/R286C); binding, intrinsic fluorescence; 250 µM, 1 µM matB, 10 mM MgCl2).
`O=C1CC(C(=O)O)NC(=O)N1` (stereo not drawn) gave a kred of 0.07 ± 0.001 s⁻¹ (Dihydroorotate dehydrogenase A (fumarate) (pyrDA, Lactococcus lactis subsp. cremoris, UniProt A2RJT9, L71F); flavin reduction, stopped-flow; Lactococcus lactis; 25 °C).
For `CNC(=O)Oc1cccc2c1OC(C)(C)O2`, the remaining activity was 0.979% (uncharacterized protein; enzyme activity, inhibitor; Sf9 cell homogenate; 93.02 µM, 0.1667 h, together with: α-naphthyl acetate substrate; baseline: no inhibitor).
`O=C(Nc1cnccc1Cl)N1CCN(Cc2ccc3c(c2)OC(F)(F)O3)CC1` gave an inhibition of 4% (MAOA; enzyme activity, inhibitor; 10 µM, human, together with: kynuramine substrate).
The activation of `CN1CCN(c2cc(-c3ccncc3)c(-c3ccc4ccccc4c3)nn2)CC1` is reported as 0.1% (UTS2R (Homo sapiens, UniProt Q9UKP6); agonist, FLIPR; 12.5 µM).
With `CC[C@H](C)[C@H](NC(=O)[C@@H](NC(=O)[C@H](CC(C)C)NC(=O)[C@H](CC(N)=O)NC(=O)[C@H](CC(=O)O)NC(=O)[C@H](CCC(=O)O)NC(=O)[C@@H](NC(=O)[C@@H](N)CCCNC(=N)N)[C@@H](C)CC)C(C)C)C(=O)N[C@H](C(=O)N[C@@H](CCCNC(=N)N)C(=O)O)[C@@H](C)CC` the koff was 0.158 s⁻¹ (Epithelial sodium channel subunit alpha (Homo sapiens, UniProt P37088); binding, bio-layer interferometry).
For `C[C@H]1CN(c2n[nH]c3nc(N[C@H]4CC[C@H](NS(=O)(=O)CCC(F)(F)F)CC4)ncc23)CCO1`, the relative abundance was 1.13 (CHUK (Homo sapiens, UniProt O15111); inhibitor, Kinobeads competition profiling; 0.032 µM; baseline: vehicle).
For `CCCCCCCCCCCCCCCC[N+](C)(C)C.[Br-]`, “mean closed time” read 167 ms and 159 ms (Sodium channel protein type 4 alpha, BTX-activated (Oryctolagus cuniculus, UniProt G1SLL9); rabbit).
`CC12CCC(CC1)C(C)(C)O2`: “product formation rate” 248 ± 28 min⁻¹ (1,8-cineole 2-endo-monooxygenase (cinA, Citrobacter braakii, UniProt Q8VQF6); substrate, GC-MS; 0 to 2 min, wild-type enzyme variant).
The inhibition of `CN(C(=O)n1cnc(-c2ccc[n+]([O-])c2)c1)C1CCCCC1` is reported as 0% (MAOA; enzyme activity, inhibitor; 10 µM, human, together with: kynuramine substrate).
`C[C@@H](O)[C@H](NC(=O)c1ccc(-c2ccc(Br)cc2)cc1)C(=O)NO`: “entropy change (ΔS)” 0.0165 kcal/mol/K (UDP-3-O-acyl-N-acetylglucosamine deacetylase (Pseudomonas aeruginosa, UniProt P47205, C40S); isothermal titration calorimetry; concentration not given, 298 K, untagged protein, averaged).
For `CC[C@H](C)[C@H](NC(=O)CNC(=O)[C@@H](N)CCCCN)C(=O)N[C@@H](CC(C)C)C(=O)N[C@@H](CCCCN)C(=O)N[C@@H](CC(N)=O)C(=O)N[C@@H](CCCNC(=N)N)C(=O)N[C@@H](C)C(=O)N[C@@H](CCCNC(=N)N)C(=O)N[C@@H](CCCNC(=N)N)C(=O)N[C@@H](CCC(=O)O)C(=O)N[C@@H](CCCNC(=N)N)C(=O)N1CCC[C@H]1C(=O)NCC(=O)N[C@@H](CCCCN)C(=O)N[C@@H](CCCNC(=N)N)C(=O)N[C@@H](CCCCN)C(=O)N[C@H](C(=O)N[C@H](C(=O)N[C@H](C(=O)N[C@@H](Cc1c[nH]c2ccccc12)C(=O)N1CCC[C@H]1C(=O)N[C@@H](CCC(=O)O)C(=O)N[C@@H](CCC(=O)O)C(=O)NCC(=O)N[C@@H](CCCCN)C(=O)N[C@@H](CC(C)C)C(=O)N[C@@H](CCCNC(=N)N)C(=O)N[C@@H](CCC(=O)O)C(=O)N[C@@H](Cc1ccc(O)cc1)C(=O)N[C@@H](Cc1ccccc1)C(=O)N[C@@H](Cc1ccc(O)cc1)C(=O)N[C@@H](Cc1ccccc1)C(=O)N[C@@H](CCC(=O)O)C(=O)N[C@@H](CC(C)C)C(=O)N[C@@H](CC(=O)O)C(=O)N[C@@H](CCC(=O)O)C(=O)N[C@H](C(=O)N[C@@H](CCC(=O)O)C(=O)N[C@@H](CCCNC(=N)N)C(=O)N[C@H](C(=O)N[C@@H](CC(N)=O)C(=O)N[C@H](C(=O)O)C(C)C)C(C)C)[C@@H](C)O)[C@@H](C)O)C(C)C)[C@@H](C)O`, “entropic term −TΔS” read -20.3 ± 1.4 kcal/mol (PPP1CA (Homo sapiens, UniProt P62136); binding, isothermal titration calorimetry; 25 °C, PP1α residues 7-330).

For quick reference, copied from above:
The remaining activity of `CCOC(=O)CC(SP(=O)(OC)OC)C(=O)OCC` (stereo not drawn) is reported as 33.9% (uncharacterized protein; enzyme activity, inhibitor; Sf9 cell homogenate; 0.344 µM, 0.1667 h, together with: α-naphthyl acetate substrate; baseline: no inhibitor).
For `CC[C@@H](C)[C@@H](NC(=O)[C@@H](Cc1ccc(O)cc1)NC(=O)[C@H]1CCCN1C(=O)[C@@H](CCCNC(=N)N)NC(=O)[C@H](N)Cc1c[nH]cn1)C(=O)N[C@H](C)C(=O)N[C@H](Cc1c[nH]cn1)C(=O)N[C@H](CCCNC(=N)N)C(=O)N[C@H](CCCCNC(=O)c1cccc(S(=O)(=O)F)c1)C(=O)N[C@H](Cc1ccc(O)cc1)C(=O)N[C@H](CO)C(=O)N[C@H](Cc1ccccc1)C(N)=O`, the surface expression was 0.919 and 0.887 (Transferrin receptor protein 1 (Tfrc, Mus musculus, UniProt Q62351); flow cytometry; RAW264.7; 24 h, pH 7.4, unit not given; baseline: 0 h).
`C/C=C1/C(=O)C[C@H]2[C@@H]3CCC4=CC(=O)CC[C@]4(C)[C@H]3CC[C@]12C` — result for IC50: “inactive” (Nuclear receptor subfamily 1 group I member 3 (Homo sapiens, UniProt Q14994); coactivator recruitment).
For `O=C(Nc1cccnn1)N1CCC(=Cc2cccc(Oc3ccc(C(F)(F)F)cn3)c2)CC1`, “inhibition of binding” read 19% (GABBR1 (Homo sapiens, UniProt Q9UBS5); radioligand binding; 50 µM, together with: [3H]CGP-54626).
